Assay results pooled from the literature.
Each numbered part is a random draw from the data of one study; scales do not carry over between parts.
Chain of UniProt P51617 (whole entry, looked up): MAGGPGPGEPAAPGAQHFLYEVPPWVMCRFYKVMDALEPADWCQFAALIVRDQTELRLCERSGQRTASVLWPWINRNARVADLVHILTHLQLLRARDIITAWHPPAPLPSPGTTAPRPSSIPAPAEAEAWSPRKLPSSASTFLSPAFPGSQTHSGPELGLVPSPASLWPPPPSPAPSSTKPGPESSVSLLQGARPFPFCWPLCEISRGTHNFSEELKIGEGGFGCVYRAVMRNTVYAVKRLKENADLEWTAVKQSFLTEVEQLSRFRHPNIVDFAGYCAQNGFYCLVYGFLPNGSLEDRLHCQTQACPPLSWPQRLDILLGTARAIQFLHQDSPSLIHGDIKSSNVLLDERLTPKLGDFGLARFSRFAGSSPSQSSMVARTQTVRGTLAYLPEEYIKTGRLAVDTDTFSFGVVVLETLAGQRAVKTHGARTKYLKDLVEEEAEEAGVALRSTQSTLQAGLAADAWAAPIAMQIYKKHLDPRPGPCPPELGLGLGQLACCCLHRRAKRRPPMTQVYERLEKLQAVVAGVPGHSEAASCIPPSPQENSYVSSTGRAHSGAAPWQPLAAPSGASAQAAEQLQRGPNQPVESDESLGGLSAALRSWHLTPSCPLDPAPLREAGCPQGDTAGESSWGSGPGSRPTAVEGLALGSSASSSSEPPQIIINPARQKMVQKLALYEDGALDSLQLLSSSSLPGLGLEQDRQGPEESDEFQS
Chain of UniProt P23458 (whole entry, looked up): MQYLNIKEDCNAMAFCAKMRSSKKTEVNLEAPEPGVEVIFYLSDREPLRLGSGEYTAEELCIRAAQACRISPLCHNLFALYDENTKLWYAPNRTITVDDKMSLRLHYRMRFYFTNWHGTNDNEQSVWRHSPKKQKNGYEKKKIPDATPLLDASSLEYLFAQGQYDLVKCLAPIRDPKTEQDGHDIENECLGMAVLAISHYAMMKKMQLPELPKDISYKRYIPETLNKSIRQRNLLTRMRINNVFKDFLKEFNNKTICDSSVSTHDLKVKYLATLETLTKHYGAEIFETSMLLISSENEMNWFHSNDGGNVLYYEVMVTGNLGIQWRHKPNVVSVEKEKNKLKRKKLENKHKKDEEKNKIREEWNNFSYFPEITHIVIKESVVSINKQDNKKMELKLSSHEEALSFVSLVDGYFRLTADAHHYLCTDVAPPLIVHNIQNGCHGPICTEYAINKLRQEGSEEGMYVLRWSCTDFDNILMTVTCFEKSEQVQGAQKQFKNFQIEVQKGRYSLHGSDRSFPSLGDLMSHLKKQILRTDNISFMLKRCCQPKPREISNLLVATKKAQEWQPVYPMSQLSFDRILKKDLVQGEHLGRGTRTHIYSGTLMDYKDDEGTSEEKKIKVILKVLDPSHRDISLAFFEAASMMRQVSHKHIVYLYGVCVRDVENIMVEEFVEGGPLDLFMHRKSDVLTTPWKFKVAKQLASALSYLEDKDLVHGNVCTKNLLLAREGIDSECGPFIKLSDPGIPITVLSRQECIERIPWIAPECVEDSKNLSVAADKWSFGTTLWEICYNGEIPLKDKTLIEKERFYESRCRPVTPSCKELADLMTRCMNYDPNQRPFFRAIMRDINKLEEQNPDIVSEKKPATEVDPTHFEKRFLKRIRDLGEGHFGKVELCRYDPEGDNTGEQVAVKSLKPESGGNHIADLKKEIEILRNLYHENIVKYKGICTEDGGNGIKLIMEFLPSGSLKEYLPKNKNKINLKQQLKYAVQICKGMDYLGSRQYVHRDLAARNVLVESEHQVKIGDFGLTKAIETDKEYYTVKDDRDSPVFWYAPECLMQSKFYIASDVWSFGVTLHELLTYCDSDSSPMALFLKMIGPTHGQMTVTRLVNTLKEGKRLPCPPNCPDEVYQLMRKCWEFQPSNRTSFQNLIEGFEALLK
Chain of UniProt Q9NY57 (whole entry, looked up): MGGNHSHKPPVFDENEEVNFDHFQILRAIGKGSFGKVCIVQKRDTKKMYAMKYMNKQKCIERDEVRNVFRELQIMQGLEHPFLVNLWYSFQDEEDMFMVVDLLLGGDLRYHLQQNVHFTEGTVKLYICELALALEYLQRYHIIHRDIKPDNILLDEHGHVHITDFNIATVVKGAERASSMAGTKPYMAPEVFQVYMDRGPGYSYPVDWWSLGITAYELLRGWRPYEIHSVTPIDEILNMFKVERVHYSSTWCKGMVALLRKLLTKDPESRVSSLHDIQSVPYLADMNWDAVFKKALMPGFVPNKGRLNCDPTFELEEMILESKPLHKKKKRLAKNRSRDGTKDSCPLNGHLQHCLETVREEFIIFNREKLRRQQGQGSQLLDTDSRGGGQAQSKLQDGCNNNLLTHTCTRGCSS

Series 1
Structure (SMILES): CNc1ncc2cc(-c3cc(OC)cc(OC)c3Cl)c(=O)n(CCc3ccc(NC(=O)C(C#N)=CC(C)(C)N4CCOCC4)cc3)c2n1
Observed: kinase activity
Endpoint: inhibition
PDGFRB: Platelet-derived growth factor receptor beta (PDGFRB, Homo sapiens, UniProt P09619)
Chain of UniProt P09619 (whole entry, looked up): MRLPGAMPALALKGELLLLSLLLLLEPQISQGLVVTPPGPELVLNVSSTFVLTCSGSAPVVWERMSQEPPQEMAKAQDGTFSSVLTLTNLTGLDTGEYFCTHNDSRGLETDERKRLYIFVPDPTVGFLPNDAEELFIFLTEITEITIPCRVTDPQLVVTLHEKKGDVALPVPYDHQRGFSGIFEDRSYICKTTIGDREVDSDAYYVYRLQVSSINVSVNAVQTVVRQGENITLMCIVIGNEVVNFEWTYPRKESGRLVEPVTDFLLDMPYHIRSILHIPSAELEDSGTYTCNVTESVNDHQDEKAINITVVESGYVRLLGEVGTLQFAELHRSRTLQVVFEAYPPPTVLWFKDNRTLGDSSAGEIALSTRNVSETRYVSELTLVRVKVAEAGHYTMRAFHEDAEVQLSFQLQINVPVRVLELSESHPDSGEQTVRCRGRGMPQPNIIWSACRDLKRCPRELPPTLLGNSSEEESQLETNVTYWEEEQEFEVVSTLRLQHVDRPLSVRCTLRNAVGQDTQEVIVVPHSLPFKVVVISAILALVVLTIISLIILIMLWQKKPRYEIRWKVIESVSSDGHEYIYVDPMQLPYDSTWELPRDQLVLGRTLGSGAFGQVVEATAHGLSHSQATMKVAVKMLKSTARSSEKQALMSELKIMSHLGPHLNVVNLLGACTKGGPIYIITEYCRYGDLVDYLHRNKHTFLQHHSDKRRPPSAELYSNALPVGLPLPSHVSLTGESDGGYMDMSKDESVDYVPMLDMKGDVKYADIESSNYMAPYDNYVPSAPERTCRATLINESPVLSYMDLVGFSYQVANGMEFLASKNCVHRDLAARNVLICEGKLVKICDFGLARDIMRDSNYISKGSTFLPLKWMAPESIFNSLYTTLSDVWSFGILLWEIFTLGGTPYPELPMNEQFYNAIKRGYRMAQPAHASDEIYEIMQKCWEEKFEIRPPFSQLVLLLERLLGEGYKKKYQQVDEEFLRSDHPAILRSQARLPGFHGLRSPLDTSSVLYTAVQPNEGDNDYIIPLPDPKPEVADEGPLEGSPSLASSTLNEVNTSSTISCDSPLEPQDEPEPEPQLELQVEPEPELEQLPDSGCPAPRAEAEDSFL
Serine/threonine-protein kinase PLK1 (PLK1, Homo sapiens, UniProt P53350); 0.1 µM: -2%
Ribosomal protein S6 kinase alpha-6 (RPS6KA6, Homo sapiens, UniProt Q9UK32); 0.1 µM: 0%
Interleukin-1 receptor-associated kinase 1 (IRAK1, Homo sapiens, UniProt P51617); 0.1 µM: 1%
Calcium/calmodulin-dependent protein kinase type II subunit alpha (CAMK2A, Homo sapiens, UniProt Q9UQM7); 1 µM: -2%
Dual specificity tyrosine-phosphorylation-regulated kinase 3 (DYRK3, Homo sapiens, UniProt O43781); 0.1 µM: -6%
Serine/threonine-protein kinase D3 (PRKD3, Homo sapiens, UniProt O94806); 0.1 µM: 7%
Serine/threonine-protein kinase 26 (STK26, Homo sapiens, UniProt Q9P289); 0.1 µM: -3%
Serine/threonine-protein kinase Sgk2 (SGK2, Homo sapiens, UniProt Q9HBY8); 0.1 µM: -1%
PDGFRB; 0.1 µM: 9%
Ephrin type-B receptor 2 (EPHB2, Homo sapiens, UniProt P29323); 0.1 µM: -5%
Tyrosine-protein kinase JAK1 (JAK1, Homo sapiens, UniProt P23458); 0.1 µM: 0%
PDGFRB; 1 µM: 35%
Mitogen-activated protein kinase 14 (MAPK14, Homo sapiens, UniProt Q16539); 0.1 µM: -2%
Protein kinase C gamma type (PRKCG, Homo sapiens, UniProt P05129); 1 µM: 6%
Ephrin type-B receptor 3 (EPHB3, Homo sapiens, UniProt P54753); 0.1 µM: 1%
MAP kinase-activated protein kinase 2 (MAPKAPK2, Homo sapiens, UniProt P49137); 1 µM: 5%
Phosphatidylinositol 4,5-bisphosphate 3-kinase catalytic subunit gamma isoform (PIK3CG, Homo sapiens, UniProt P48736); 1 µM: 2%

Series 2
SMILES: CCC1(c2cccc(-c3cn(C)nc3C)c2)C2=C(Nc3n[nH]cc31)C(F)C(C)(C)CC2=O (single isomer, unassigned)
Tested at: 1 µM
Endpoint: remaining binding
MAP kinase-interacting serine/threonine-protein kinase 1 (MKNK1, Homo sapiens, UniProt Q9BUB5); kinase binding, KINOMEscan; relative to: DMSO control: 100%
RAF proto-oncogene serine/threonine-protein kinase (RAF1, Homo sapiens, UniProt P04049); binding, competition with immobilised ligand: 97%
Tyrosine-protein kinase JAK1, JH1 (JAK1, Homo sapiens, UniProt P23458); binding, competition with immobilised ligand: 100%
Tyrosine-protein kinase Fyn (FYN, Homo sapiens, UniProt P06241); binding, competition with immobilised ligand: 100%
Tyrosine-protein kinase TXK (TXK, Homo sapiens, UniProt P42681); kinase binding, KINOMEscan; relative to: DMSO control: 100%
Rho-associated protein kinase 1 (ROCK1, Homo sapiens, UniProt Q13464); kinase binding, KINOMEscan; relative to: DMSO control: 84%
Ephrin type-A receptor 5 (EPHA5, Homo sapiens, UniProt P54756); kinase binding, KINOMEscan; relative to: DMSO control: 98%
Mitogen-activated protein kinase kinase kinase 11 (MAP3K11, Homo sapiens, UniProt Q16584); binding, competition with immobilised ligand: 100%
Tyrosine-protein kinase ABL1, phosphorylated (ABL1, Homo sapiens, UniProt P00519, T315I); binding, competition with immobilised ligand: 99%
Ribosomal protein S6 kinase alpha-6, N-terminal kinase domain (RPS6KA6, Homo sapiens, UniProt Q9UK32); binding, competition with immobilised ligand: 100%
Serine/threonine-protein kinase RIO1 (RIOK1, Homo sapiens, UniProt Q9BRS2); kinase binding, KINOMEscan; relative to: DMSO control: 100%
Mitogen-activated protein kinase kinase kinase 9 (MAP3K9, Homo sapiens, UniProt P80192); binding, competition with immobilised ligand: 100%
Tyrosine-protein kinase ABL1, non-phosphorylated (ABL1, Homo sapiens, UniProt P00519, T315I); binding, competition with immobilised ligand: 95%
Calcium/calmodulin-dependent protein kinase type 1 (CAMK1, Homo sapiens, UniProt Q14012); kinase binding, KINOMEscan; relative to: DMSO control: 93%
Phosphatidylinositol 4,5-bisphosphate 3-kinase catalytic subunit alpha isoform (PIK3CA, Homo sapiens, UniProt P42336, E545A); kinase binding, KINOMEscan; relative to: DMSO control: 96%
Serine/threonine-protein kinase SIK2 (SIK2, Homo sapiens, UniProt Q9H0K1); binding, competition with immobilised ligand: 100%
Serine/threonine-protein kinase 32B (STK32B, Homo sapiens, UniProt Q9NY57); binding, competition with immobilised ligand: 82%
Megakaryocyte-associated tyrosine-protein kinase (MATK, Homo sapiens, UniProt P42679); kinase binding, KINOMEscan; relative to: DMSO control: 95%
Interleukin-1 receptor-associated kinase 1 (IRAK1, Homo sapiens, UniProt P51617); binding, competition with immobilised ligand: 85%
Interleukin-1 receptor-associated kinase 4 (IRAK4, Homo sapiens, UniProt Q9NWZ3); binding, competition with immobilised ligand: 99%

Series 3
SMILES: C[C@@H]1CN(c2ccc(-c3cc(C(=O)NCCOCCOCCOCCOCCNC(=O)Cn4cc(-c5[nH]cc(C(=O)N[C@@H](CC(N)=O)c6ccc(F)c(Cl)c6)c5-c5ccc(Cl)cc5F)cn4)ccc3F)cc2NC(=O)c2c[nH]c(=O)cc2C(F)(F)F)C[C@H](C)N1C
Observed: thermal unfolding
Method: differential scanning fluorimetry
Tested at: 5.5 µM
Direction: higher = more unfolded
Endpoint: SYPRO Orange fluorescence
DCAF1: DDB1- and CUL4-associated factor 1 (DCAF1, Homo sapiens, UniProt Q9Y4B6)
Chain of UniProt Q9Y4B6 (whole entry, looked up): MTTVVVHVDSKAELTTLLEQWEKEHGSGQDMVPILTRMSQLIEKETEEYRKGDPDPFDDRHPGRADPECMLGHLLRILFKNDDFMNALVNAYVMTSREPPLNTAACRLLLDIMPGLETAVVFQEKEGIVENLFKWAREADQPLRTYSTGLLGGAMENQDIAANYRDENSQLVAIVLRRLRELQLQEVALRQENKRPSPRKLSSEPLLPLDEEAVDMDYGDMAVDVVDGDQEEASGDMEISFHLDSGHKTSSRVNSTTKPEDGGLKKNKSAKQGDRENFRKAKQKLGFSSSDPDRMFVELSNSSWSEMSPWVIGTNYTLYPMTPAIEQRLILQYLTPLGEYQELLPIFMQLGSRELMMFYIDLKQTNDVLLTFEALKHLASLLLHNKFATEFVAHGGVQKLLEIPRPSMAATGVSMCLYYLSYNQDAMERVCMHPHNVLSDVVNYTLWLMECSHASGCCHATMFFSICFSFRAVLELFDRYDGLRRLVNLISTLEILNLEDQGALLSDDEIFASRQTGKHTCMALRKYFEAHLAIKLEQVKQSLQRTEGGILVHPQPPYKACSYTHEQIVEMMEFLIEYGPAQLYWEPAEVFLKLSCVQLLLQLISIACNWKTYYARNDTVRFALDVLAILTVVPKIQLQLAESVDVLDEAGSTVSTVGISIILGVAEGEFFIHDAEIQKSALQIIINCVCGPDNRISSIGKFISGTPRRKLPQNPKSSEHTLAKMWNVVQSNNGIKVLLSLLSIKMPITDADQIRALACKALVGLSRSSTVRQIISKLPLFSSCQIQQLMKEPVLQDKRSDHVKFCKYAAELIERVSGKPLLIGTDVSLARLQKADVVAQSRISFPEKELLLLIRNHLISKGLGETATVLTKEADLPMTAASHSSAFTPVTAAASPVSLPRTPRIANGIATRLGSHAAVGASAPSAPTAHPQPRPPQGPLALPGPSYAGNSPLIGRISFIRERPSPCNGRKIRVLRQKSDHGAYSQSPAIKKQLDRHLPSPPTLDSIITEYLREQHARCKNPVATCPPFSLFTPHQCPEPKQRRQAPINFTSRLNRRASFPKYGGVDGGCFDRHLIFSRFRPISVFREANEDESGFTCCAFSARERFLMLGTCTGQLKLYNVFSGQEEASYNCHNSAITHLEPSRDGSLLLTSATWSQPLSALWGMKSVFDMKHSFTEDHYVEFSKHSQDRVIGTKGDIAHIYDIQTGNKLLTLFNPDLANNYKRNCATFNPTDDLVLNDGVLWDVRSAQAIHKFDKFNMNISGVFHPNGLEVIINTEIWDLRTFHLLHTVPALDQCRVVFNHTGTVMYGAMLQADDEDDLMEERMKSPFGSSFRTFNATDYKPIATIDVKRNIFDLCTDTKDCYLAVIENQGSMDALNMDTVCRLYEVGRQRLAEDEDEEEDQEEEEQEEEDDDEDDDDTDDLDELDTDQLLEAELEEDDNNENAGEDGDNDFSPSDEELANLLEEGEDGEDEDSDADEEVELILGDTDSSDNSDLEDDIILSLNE
WDR5: WD repeat-containing protein 5 (WDR5, Homo sapiens, UniProt P61964)
DCAF1; 79.41 °C: 44800 a.u.
DCAF1; 59.21 °C: 34000 a.u.
WDR5; 66.81 °C: 7080 a.u.
DCAF1; 28.2 °C: 7890 a.u.
WDR5; 90.61 °C: 42800 a.u.
WDR5; 49 °C: 14500 a.u.
DCAF1; 41.4 °C: 10900 a.u.
WDR5; 67.41 °C: 6990 a.u.
DCAF1; 29 °C: 8070 a.u.
DCAF1; 65.61 °C: 56400 a.u.
WDR5; 85.01 °C: 39400 a.u.

Series 4
SMILES: CCN1/C(=C/C=C2\CCCC(/C=C/C3=[N+](CC)c4ccccc4C3(C)C)=C2NCCCCCCCCN2CCC(Nc3nc4ccccc4n3Cc3ccc(F)cc3)CC2)C(C)(C)c2ccccc21
Cell line: U-87 MG
Tested at: concentration not given
Relative to: DMSO
Endpoint: log2 fold change
measured: DNAJC6 mRNA: 0.917
measured: MIS18BP1 mRNA: -1.2
measured: LZTFL1 mRNA: 1.16
measured: MEFV mRNA: -1.87
measured: PARM1 mRNA: 2.92
measured: SLAIN1 mRNA: 1.82
measured: EFL1 mRNA: 1.26
measured: PDE1A mRNA: 4.39
measured: SH3BGRL2 mRNA: 1.46
measured: TOLLIP mRNA: 1.04
measured: ST18 mRNA: -3.16
measured: TMEM100 mRNA: -2.71
measured: DTX4 mRNA: 1.76
measured: LAMA5 mRNA: -1.29
measured: IDH2 mRNA: -1.45
measured: SLC39A10 mRNA: -2.03

Repeated from above (series 1):
Serine/threonine-protein kinase 26 (STK26, Homo sapiens, UniProt Q9P289); 0.1 µM: -3%
Serine/threonine-protein kinase Sgk2 (SGK2, Homo sapiens, UniProt Q9HBY8); 0.1 µM: -1%
PDGFRB; 0.1 µM: 9%
Ephrin type-B receptor 2 (EPHB2, Homo sapiens, UniProt P29323); 0.1 µM: -5%
Tyrosine-protein kinase JAK1 (JAK1, Homo sapiens, UniProt P23458); 0.1 µM: 0%
PDGFRB; 1 µM: 35%
Mitogen-activated protein kinase 14 (MAPK14, Homo sapiens, UniProt Q16539); 0.1 µM: -2%
Protein kinase C gamma type (PRKCG, Homo sapiens, UniProt P05129); 1 µM: 6%
